Measurements gathered from unrelated publications.
Each numbered part is a random draw from the data of one study; scales do not carry over between parts. Changes are numbered by the printed parent chain.
UniProt Q9Y6E0, sequence (whole entry, looked up): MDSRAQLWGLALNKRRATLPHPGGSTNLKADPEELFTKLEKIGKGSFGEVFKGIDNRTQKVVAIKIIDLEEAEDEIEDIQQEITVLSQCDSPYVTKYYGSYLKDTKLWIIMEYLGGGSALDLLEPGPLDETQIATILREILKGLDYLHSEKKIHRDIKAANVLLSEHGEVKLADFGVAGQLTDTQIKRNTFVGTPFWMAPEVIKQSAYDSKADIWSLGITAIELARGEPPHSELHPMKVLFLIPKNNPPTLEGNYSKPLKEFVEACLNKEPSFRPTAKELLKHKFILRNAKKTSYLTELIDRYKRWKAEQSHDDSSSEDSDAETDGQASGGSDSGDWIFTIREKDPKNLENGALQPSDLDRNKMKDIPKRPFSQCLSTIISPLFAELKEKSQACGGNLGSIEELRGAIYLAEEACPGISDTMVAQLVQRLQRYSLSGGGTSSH
UniProt P49137, sequence (whole entry, looked up): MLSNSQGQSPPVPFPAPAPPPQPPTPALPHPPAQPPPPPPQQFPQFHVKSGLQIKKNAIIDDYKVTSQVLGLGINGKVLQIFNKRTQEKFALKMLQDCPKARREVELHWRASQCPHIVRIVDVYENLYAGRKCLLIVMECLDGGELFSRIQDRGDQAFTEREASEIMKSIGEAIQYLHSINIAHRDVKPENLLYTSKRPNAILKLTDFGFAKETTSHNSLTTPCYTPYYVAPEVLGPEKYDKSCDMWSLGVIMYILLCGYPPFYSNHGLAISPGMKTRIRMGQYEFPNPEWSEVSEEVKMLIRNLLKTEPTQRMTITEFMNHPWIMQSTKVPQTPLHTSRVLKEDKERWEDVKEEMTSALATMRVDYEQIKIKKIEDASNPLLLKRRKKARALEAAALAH
UniProt P53671, sequence (whole entry, looked up): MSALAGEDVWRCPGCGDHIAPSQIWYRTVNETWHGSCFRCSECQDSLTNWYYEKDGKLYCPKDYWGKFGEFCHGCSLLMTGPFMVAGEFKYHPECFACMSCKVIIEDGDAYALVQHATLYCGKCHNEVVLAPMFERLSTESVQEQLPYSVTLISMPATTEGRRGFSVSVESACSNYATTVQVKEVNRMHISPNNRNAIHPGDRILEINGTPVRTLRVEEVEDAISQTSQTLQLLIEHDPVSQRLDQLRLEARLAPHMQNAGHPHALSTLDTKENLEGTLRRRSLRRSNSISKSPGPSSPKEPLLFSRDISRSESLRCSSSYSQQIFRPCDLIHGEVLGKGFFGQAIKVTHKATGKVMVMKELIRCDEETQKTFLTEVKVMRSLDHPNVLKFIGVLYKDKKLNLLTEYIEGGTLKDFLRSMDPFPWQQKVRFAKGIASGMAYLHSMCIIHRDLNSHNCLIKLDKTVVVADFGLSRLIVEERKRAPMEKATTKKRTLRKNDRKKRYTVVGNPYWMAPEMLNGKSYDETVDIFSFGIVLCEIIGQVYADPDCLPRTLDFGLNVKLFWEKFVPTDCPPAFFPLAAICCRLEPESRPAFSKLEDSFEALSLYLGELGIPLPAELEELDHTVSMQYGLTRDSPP
UniProt Q99640, sequence (whole entry, looked up): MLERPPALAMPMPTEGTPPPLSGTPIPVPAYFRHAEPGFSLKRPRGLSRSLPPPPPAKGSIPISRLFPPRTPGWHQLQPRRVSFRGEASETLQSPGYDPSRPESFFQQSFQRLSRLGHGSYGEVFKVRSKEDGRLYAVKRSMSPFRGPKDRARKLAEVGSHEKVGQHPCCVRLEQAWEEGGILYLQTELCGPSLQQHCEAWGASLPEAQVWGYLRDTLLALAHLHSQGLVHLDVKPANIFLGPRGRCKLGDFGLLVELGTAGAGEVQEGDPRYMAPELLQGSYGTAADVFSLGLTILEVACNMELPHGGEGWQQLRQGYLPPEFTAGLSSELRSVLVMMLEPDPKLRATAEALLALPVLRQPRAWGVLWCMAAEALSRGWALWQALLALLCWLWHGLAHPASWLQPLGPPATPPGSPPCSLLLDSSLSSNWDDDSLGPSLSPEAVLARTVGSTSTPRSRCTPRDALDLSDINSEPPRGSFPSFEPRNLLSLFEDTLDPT
UniProt Q15831, sequence (whole entry, looked up): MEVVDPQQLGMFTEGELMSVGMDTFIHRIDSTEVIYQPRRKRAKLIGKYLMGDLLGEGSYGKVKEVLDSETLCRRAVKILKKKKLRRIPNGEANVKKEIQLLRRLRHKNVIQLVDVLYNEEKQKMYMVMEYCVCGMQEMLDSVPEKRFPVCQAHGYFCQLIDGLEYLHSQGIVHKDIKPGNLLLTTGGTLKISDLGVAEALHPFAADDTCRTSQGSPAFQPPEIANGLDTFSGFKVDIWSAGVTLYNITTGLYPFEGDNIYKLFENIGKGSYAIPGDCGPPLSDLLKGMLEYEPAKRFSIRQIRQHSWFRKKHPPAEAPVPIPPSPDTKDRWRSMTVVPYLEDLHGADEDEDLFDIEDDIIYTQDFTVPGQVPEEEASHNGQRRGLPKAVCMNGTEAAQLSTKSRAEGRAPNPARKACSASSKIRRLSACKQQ
UniProt P10721, sequence (whole entry, looked up): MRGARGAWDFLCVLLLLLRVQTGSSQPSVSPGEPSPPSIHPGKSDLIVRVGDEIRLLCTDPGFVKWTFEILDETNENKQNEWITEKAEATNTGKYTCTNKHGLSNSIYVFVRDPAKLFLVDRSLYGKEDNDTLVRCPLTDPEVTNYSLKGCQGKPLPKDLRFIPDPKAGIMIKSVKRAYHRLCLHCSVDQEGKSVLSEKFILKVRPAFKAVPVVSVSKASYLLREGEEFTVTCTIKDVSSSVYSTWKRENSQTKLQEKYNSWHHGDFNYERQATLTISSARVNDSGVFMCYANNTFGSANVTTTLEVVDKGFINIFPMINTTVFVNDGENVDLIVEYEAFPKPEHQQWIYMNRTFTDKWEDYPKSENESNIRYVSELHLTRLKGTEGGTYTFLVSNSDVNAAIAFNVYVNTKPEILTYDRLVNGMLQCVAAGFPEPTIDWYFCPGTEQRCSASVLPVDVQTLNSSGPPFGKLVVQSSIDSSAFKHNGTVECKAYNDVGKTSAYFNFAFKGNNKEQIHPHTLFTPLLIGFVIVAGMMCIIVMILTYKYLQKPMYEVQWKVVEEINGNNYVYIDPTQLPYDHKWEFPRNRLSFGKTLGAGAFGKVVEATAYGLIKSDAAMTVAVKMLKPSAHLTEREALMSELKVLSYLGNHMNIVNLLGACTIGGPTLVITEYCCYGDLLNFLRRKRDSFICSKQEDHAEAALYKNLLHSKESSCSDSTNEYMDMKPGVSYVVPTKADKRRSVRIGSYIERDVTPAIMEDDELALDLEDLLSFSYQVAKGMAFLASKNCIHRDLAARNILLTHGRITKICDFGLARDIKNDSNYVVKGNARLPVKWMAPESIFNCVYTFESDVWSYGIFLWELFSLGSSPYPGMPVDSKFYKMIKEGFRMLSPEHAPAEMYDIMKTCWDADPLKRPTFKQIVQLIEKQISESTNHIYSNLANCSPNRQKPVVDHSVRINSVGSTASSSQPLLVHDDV
UniProt P51957, sequence (whole entry, looked up): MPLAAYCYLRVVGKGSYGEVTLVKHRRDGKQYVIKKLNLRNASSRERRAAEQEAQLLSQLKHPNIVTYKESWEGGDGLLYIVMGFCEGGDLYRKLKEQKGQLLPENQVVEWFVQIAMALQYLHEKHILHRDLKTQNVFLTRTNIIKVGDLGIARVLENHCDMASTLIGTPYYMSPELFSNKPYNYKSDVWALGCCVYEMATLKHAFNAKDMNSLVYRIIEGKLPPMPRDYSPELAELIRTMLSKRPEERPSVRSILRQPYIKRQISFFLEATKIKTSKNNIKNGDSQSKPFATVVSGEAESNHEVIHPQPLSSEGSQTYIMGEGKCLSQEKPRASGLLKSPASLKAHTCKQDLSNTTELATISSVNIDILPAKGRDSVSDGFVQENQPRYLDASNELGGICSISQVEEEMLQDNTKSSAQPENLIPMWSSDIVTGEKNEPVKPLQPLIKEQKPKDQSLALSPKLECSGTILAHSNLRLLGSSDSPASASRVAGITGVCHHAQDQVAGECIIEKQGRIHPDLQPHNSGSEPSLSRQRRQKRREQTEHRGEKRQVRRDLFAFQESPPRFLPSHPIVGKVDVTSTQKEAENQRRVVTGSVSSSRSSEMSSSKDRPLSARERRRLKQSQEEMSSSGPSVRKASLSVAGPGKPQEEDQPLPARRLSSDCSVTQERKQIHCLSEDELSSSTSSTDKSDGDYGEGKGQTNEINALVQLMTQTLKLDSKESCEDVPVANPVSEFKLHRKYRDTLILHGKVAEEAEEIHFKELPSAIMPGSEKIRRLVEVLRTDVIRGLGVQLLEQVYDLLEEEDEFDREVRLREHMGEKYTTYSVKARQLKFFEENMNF

Sample 1
SMILES: CCCCN(CCCC)C(=O)CN1C[C@H](c2cc(OC)c3c(c2)OCO3)[C@@H](C(=O)O)[C@@H]1CC(C)(C)CCC
Read-out: cell-free assay
Method: competition with immobilised ligand
Tested at: 1 µM
It gave 100% for remaining binding (STK11 (Homo sapiens, UniProt Q15831)).
LIM domain kinase 2 (LIMK2, Homo sapiens, UniProt P53671) — remaining binding: 100%.
STK24 (Homo sapiens, UniProt Q9Y6E0) — remaining binding: 100%.
MAPKAPK2 (Homo sapiens, UniProt P49137) — remaining binding: 100%.
It gave 85% for remaining binding (NEK4 (Homo sapiens, UniProt P51957)).
PKMYT1 (Homo sapiens, UniProt Q99640) — remaining binding: 100%.
For TIE1 (Homo sapiens, UniProt P35590): remaining binding read 100%.
For KIT (Homo sapiens, UniProt P10721): remaining binding read 100%.

Sample 2
Species: mouse
Matrix: microsomes or S9
Tested at: 2 µM
Time: 0.5 h
For `O=C1CSC(Nc2cccc(C(F)(F)F)c2)=N1`, the remaining compound was 39.5%.
With `COc1cc(=O)n(C)cc1C(=O)NCc1csc2ncnn12` the remaining compound was 87.9%.
`O=C1NC2c3ccccc3C(=O)N2c2ccccc21` (centres unmarked) gave a remaining compound of 14.8%.

Sample 3
Target: CEP164, C-terminal peptide (human)
Method: DHFR complementation, deep sequencing
Matrix: yeast
Notes: single substitutions, model-inferred values
Baseline: wild type
Reading: higher = weaker binding
Starting sequence: PDZK1, PDZ domain 2 (human); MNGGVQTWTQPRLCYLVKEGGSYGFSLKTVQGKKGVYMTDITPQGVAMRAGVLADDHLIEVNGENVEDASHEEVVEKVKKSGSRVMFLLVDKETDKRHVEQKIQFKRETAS; partner HNRVKVYRF
`D40V`: “binding free energy change” 0.666 kcal/mol.
Under “binding free energy change”, `K92V` is recorded as -0.1 kcal/mol.
`A69F` — result for “binding free energy change”: -0.343 kcal/mol.
`A54N`: “binding free energy change” -0.211 kcal/mol.
`I103N`: “binding free energy change” -0.0511 kcal/mol.
`R84M`: “binding free energy change” 0.144 kcal/mol.
`G21C`: “binding free energy change” 0.291 kcal/mol.
`L89D`: “binding free energy change” 1.63 kcal/mol.

Sample 4
Cell line: mouse MPNST tumor cells
Method: high-content nuclear imaging
Measured: cell number
Tested at: 10 µM
Time: 12 h
Notes: mean of 2 replicates
Baseline: plate mean
Reading: higher = more cells
For `CN(C)C(=O)C(CCN1CCC(O)(c2ccc(Cl)cc2)CC1)(c1ccccc1)c1ccccc1`, the nuclei count was -5.72 z-score.
The nuclei count of `Clc1cc2cc(c1)-c1cnn3ccc(nc13)NCCOCCO2` is reported as 1.78 z-score.
The nuclei count of `O=CN1CCC(C(=O)NCCN2CCC(=C3c4ccccc4C=Cc4ccccc43)CC2)CC1` is reported as 6.79 z-score.

Mixed results
The inhibition of `COc1cc(C(=O)N2CCC(N3CCN(C)CC3)CC2)ccc1Nc1ncc2c(n1)N(C)c1ccccc1C(=O)N2C` is reported as 4.6% (mouse IKKε and TBK1; probe labelling, KiNativ ADP probe; mouse brain lysate; 1 µM, LYS2 site DIkPGNIMR).

Repeated from above (sample 2):
For `O=C1CSC(Nc2cccc(C(F)(F)F)c2)=N1`, the remaining compound was 39.5%.
With `COc1cc(=O)n(C)cc1C(=O)NCc1csc2ncnn12` the remaining compound was 87.9%.
`O=C1NC2c3ccccc3C(=O)N2c2ccccc21` (centres unmarked) gave a remaining compound of 14.8%.
